Experimental data from different studies.
“And” joins repeats or separate records; there may be more than shown. In brackets after ≈: the same amount, converted by molar mass.

C#Cc1ccc(C[C@@H]2NC(=O)CSCCNC(=O)[C@H](C(C)(C)O)NC(=O)[C@H](CC(C)C)NC(=O)[C@H](CCC3CCCCC3)NC(=O)[C@H](CC(C)C)NC(=O)[C@H](C(C)C)NC(=O)[C@]3(C)CCCN3C(=O)[C@H](C(C)C)NC2=O)cc1
EC50/IC50 ratio (HIV-1; viral replication; MT4; relative to: cell EC50 over protease IC50): 249

CN(C)c1nc(NCc2ccc(-c3ccccc3)cc2)c(/N=N/c2ccc(Cl)cc2)c(N(C)C)n1
mortality (Ostrinia furnacalis; leaf dipping; 500 mg/L, 96 h): 100%

CN(C(=O)c1ccn2ncc(-c3ccc(C(N)=O)cc3)c2c1)c1ccc(C#N)cn1
faecal Nluc luminescence (Cryptosporidium parvum; UGA1 Nluc, IFN-gamma knockout C57BL/6 mice, faeces; oral, 10 mg/kg daily, 72 h post infection, treatment days 11-17; higher means more parasites): 37 a.u. and 52 a.u. and 83 a.u. and 110 a.u.

Cc1cc(C(=O)Nc2nc3cccc(C)c3n2[C@H]2CCCCN(C(=O)/C=C/CN(C)C)C2)ccn1
EC50 fold shift (Trypanosoma brucei; cell growth, Alamar Blue; 2T1 overexpressing Tb927.11.2040; relative to: parental 2T1): 0.66 fold and 0.58 fold

CC[C@H](C)[C@H](NC(=O)[C@H](CC(N)=O)NC(=O)[C@H](CC(C)C)NC(=O)[C@@H](NC(=O)[C@@H](N)Cc1ccccc1)[C@@H](C)CC)C(=O)N[C@@H](CC(C)C)C(=O)N[C@@H](CC(=O)O)C(=O)N[C@@H](CCCCN)C(N)=O
geometric mean MIC (Gram-positive bacteria): 256 µM

CC[C@H](C)[C@@H]1NC(=O)[C@H](CO)NC(=O)C(C)(CCCCN)NC(=O)[C@@H]2CSSC[C@@H](C(=O)N[C@@H](Cc3ccc(O)cc3)C(N)=O)NC(=O)[C@H](CCCCN)NC(=O)[C@@H]3CSSC[C@H](NC(=O)[C@H](CCCNC(=N)N)NC(=O)C(C)(CC(C)C)NC(=O)[C@H](CC(=O)O)NC(=O)[C@H](CC(=O)O)NC(=O)[C@H](CCC(=O)O)NC(=O)[C@H](CC(N)=O)NC(=O)[C@H](Cc4c[nH]c5ccccc45)NC(=O)C(C)(CC)NC(=O)CNC(=O)[C@H](CC(N)=O)NC(=O)[C@@H](NC(=O)CNC(=O)[C@H](Cc4ccccc4)NC(=O)CN)CSSC[C@H](NC(=O)[C@H](Cc4ccc(O)cc4)NC(=O)CNC(=O)CNC(=O)[C@H](CCCCN)NC(=O)[C@H](Cc4ccc(O)cc4)NC(=O)[C@H]4CCCN4C(=O)[C@@H]4CCCN4C1=O)C(=O)N[C@@H](C)C(=O)N[C@@H](CCCCN)C(=O)N1CCC[C@@H]1C(=O)NCC(=O)N[C@@H](Cc1ccccc1)C(=O)N[C@@H](C(C)C)C(=O)N3)C(=O)N[C@@H](Cc1c[nH]cn1)C(=O)NC(C)(C)C(=O)N[C@@H](Cc1c[nH]cn1)C(=O)N2 (stereo partly drawn)
MBC (Streptococcus pneumoniae; BS-442; 24 h): 1 µM (≈ 4.46 µg/mL)

O=S(=O)(c1cccc(-c2ccc3ncnc(Nc4ccc(OCc5cccc(F)c5)c(Cl)c4)c3c2)c1)N1CCCC1
inhibition (Trypanosoma cruzi; intracellular amastigote growth; NIH 3T3, Tulahuen, β-galactosidase-expressing; 10 µM, 96 h): 32%

CCCCCCCCCCCC(=O)C(C)C(=O)N1CCC[C@H]1C(=O)NC(C)(C)C(=O)NC(C)(C)C(=O)NC(C)(C)C(=O)N[C@](C)(CC)C(=O)NCCC(=O)N[C@@H](C)C(=O)N[C@](C)(CC)C(=O)N[C@@H](C)C(=O)N[C@@H](CC(C)C)C(=O)N[C@](C)(CC)C(=O)NCCC(=O)N[C@@H](C)C(=O)N[C@](C)(CC)C(=O)NCCC(=O)N[C@@H](C)C(=O)NC(C)(C)C(=O)NC(C)(C)C(=O)NC(C)(C)C(=O)N[C@@H](C)C(=O)N[C@@H](CC(=O)O)C(=O)O (stereo partly drawn)
median survival ratio (Candidozyma auris; CBS 12775, infected Caenorhabditis elegans; 1× MIC; relative to: cpd over DMSO): 1.67

CC[C@H](C)CCCCC(=O)N[C@@H](CCN)C(=O)N[C@H](C(=O)N[C@@H](CCN)C(=O)N[C@H]1CCNC(=O)[C@H]([C@@H](C)O)NC(=O)[C@H](CCN)NC(=O)[C@H](CCN)NC(=O)[C@H](CC(C)C)NC(=O)[C@@H](CC(C)C)NC(=O)[C@H](CCN)NC1=O)[C@@H](C)O
MIC fold change (Escherichia coli; daily serial passaging; ATCC 8739; highest sub-MIC, 13 days; relative to: initial MIC): 0.579

CC(C)[C@H]1NC(=O)CNC(=O)[C@H](CO)NC(=O)[C@@H](Cc2c(-c3ccc(-c4ccc5ccccc5c4)cc3)[nH]c3ccccc23)NC(=O)[C@@H](CO)NC(=O)[C@@H](C(C)C)NC(=O)[C@H](Cc2ccccc2)NC1=O
MIC90 (Mycobacterium marinum): 31.1 µM (≈ 30 µg/mL)

[O-][N+]1=C(c2ccccc2)C2=NCCN2c2ccccc21
MIC50 (Clostridioides difficile; microbial growth): 0.5 µg/mL (≈ 1.9 µM)

CNCCO.O=C(O)C(Cl)Cl
inhibition (Chenopodium album; herbicidal activity; 15 mg/mL, 21 days, post-emergence greenhouse): 0%

Excerpt of the above:
CN(C(=O)c1ccn2ncc(-c3ccc(C(N)=O)cc3)c2c1)c1ccc(C#N)cn1
faecal Nluc luminescence (Cryptosporidium parvum; UGA1 Nluc, IFN-gamma knockout C57BL/6 mice, faeces; oral, 10 mg/kg daily, 72 h post infection, treatment days 11-17; higher means more parasites): 37 a.u. and 52 a.u. and 83 a.u. and 110 a.u.

Cc1cc(C(=O)Nc2nc3cccc(C)c3n2[C@H]2CCCCN(C(=O)/C=C/CN(C)C)C2)ccn1
EC50 fold shift (Trypanosoma brucei; cell growth, Alamar Blue; 2T1 overexpressing Tb927.11.2040; relative to: parental 2T1): 0.66 fold and 0.58 fold
